Published values gathered from unrelated publications.
Every numbered part comes from another study and shows a few of its results, in no order. Several values in a cell are separate wells, animals, samples, runs or records.
UniProt P08173, sequence (whole entry, looked up): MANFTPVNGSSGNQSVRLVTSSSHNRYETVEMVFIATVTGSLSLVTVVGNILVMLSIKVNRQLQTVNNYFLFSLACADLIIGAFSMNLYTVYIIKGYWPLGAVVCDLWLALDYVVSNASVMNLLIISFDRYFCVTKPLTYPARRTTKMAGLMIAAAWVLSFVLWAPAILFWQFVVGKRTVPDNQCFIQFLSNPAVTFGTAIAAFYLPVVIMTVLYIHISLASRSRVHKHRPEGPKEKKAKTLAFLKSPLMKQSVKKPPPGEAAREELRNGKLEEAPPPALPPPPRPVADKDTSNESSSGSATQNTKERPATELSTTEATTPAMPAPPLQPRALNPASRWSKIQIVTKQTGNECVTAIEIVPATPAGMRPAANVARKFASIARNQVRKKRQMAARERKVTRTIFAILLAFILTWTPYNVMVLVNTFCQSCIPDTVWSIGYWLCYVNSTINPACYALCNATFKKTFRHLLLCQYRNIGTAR
UniProt P35348, sequence (whole entry, looked up): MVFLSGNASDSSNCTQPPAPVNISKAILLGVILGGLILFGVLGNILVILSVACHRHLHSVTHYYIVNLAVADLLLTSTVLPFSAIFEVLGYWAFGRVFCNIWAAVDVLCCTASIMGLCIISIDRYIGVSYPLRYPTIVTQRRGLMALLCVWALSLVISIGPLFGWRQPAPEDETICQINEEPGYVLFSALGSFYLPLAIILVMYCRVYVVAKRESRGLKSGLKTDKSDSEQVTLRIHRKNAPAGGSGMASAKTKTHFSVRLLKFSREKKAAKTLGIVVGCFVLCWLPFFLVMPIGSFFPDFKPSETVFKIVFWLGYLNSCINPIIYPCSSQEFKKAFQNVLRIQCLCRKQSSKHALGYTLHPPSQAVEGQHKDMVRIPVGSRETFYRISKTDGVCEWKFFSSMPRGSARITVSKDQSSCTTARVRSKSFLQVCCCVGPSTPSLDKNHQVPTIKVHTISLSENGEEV
UniProt P13945, sequence (whole entry, looked up): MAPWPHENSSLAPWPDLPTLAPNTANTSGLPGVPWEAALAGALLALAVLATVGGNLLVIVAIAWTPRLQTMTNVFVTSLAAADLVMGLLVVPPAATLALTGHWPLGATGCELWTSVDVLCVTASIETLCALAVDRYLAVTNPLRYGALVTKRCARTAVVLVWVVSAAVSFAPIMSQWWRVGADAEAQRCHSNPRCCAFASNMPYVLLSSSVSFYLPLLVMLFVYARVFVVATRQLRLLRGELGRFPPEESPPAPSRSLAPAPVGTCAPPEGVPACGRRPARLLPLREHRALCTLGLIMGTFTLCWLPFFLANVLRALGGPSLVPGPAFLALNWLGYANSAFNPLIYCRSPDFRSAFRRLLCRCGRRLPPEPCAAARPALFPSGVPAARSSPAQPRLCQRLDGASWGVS
UniProt P25021, sequence (whole entry, looked up): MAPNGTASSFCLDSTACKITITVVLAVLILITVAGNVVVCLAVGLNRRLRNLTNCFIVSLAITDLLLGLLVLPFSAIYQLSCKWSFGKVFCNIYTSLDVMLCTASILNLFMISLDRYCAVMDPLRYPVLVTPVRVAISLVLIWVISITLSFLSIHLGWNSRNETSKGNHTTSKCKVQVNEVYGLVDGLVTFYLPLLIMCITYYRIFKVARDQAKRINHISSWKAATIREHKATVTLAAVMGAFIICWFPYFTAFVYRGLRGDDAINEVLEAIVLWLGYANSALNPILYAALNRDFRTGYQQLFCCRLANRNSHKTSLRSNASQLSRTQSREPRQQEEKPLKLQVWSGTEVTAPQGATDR

Block 1
Structure (SMILES): Cc1cc2c(-c3ccco3)cnc(N[C@H]3CCN(C)C[C@@H]3C(=O)NC3CCCCC3)c2[nH]c1=O
Tested at: 10 µM
Endpoint: inhibition
target = HTR1D (Homo sapiens, UniProt P28221); effect on = cell-free assay; result = 33.1%
target = DRD1 (Homo sapiens, UniProt P21728); effect on = ligand displacement; result = 21.2%
target = DRD3 (Homo sapiens, UniProt P35462); effect on = ligand displacement; result = 15.5%
target = HTR1B (Homo sapiens, UniProt P28222); effect on = binding; method = radioligand binding; result = 1.93%
target = DRD2 (Homo sapiens, UniProt P14416); effect on = ligand displacement; result = -10.9%
target = ADRB3 (Homo sapiens, UniProt P13945); effect on = ligand displacement; result = 35.1%
target = HRH2 (Homo sapiens, UniProt P25021); effect on = ligand displacement; result = 21.6%
target = CHRM4 (Homo sapiens, UniProt P08173); effect on = ligand displacement; result = -3%
target = HTR1E (Homo sapiens, UniProt P28566); effect on = cell-free assay; result = 9.79%
target = ADRA2B (Homo sapiens, UniProt P18089); effect on = ligand displacement; result = 28.5%
target = HRH3 (Homo sapiens, UniProt Q9Y5N1); effect on = ligand displacement; result = -2.09%
target = ADRB1 (Homo sapiens, UniProt P08588); effect on = ligand displacement; result = 2.98%
target = ADRA1A (Homo sapiens, UniProt P35348); effect on = ligand displacement; result = 10.1%

Block 2
Target: DNA polymerase theta, ATPase domain (POLQ, Homo sapiens, UniProt O75417)
UniProt O75417, sequence (whole entry, unmodified, looked up): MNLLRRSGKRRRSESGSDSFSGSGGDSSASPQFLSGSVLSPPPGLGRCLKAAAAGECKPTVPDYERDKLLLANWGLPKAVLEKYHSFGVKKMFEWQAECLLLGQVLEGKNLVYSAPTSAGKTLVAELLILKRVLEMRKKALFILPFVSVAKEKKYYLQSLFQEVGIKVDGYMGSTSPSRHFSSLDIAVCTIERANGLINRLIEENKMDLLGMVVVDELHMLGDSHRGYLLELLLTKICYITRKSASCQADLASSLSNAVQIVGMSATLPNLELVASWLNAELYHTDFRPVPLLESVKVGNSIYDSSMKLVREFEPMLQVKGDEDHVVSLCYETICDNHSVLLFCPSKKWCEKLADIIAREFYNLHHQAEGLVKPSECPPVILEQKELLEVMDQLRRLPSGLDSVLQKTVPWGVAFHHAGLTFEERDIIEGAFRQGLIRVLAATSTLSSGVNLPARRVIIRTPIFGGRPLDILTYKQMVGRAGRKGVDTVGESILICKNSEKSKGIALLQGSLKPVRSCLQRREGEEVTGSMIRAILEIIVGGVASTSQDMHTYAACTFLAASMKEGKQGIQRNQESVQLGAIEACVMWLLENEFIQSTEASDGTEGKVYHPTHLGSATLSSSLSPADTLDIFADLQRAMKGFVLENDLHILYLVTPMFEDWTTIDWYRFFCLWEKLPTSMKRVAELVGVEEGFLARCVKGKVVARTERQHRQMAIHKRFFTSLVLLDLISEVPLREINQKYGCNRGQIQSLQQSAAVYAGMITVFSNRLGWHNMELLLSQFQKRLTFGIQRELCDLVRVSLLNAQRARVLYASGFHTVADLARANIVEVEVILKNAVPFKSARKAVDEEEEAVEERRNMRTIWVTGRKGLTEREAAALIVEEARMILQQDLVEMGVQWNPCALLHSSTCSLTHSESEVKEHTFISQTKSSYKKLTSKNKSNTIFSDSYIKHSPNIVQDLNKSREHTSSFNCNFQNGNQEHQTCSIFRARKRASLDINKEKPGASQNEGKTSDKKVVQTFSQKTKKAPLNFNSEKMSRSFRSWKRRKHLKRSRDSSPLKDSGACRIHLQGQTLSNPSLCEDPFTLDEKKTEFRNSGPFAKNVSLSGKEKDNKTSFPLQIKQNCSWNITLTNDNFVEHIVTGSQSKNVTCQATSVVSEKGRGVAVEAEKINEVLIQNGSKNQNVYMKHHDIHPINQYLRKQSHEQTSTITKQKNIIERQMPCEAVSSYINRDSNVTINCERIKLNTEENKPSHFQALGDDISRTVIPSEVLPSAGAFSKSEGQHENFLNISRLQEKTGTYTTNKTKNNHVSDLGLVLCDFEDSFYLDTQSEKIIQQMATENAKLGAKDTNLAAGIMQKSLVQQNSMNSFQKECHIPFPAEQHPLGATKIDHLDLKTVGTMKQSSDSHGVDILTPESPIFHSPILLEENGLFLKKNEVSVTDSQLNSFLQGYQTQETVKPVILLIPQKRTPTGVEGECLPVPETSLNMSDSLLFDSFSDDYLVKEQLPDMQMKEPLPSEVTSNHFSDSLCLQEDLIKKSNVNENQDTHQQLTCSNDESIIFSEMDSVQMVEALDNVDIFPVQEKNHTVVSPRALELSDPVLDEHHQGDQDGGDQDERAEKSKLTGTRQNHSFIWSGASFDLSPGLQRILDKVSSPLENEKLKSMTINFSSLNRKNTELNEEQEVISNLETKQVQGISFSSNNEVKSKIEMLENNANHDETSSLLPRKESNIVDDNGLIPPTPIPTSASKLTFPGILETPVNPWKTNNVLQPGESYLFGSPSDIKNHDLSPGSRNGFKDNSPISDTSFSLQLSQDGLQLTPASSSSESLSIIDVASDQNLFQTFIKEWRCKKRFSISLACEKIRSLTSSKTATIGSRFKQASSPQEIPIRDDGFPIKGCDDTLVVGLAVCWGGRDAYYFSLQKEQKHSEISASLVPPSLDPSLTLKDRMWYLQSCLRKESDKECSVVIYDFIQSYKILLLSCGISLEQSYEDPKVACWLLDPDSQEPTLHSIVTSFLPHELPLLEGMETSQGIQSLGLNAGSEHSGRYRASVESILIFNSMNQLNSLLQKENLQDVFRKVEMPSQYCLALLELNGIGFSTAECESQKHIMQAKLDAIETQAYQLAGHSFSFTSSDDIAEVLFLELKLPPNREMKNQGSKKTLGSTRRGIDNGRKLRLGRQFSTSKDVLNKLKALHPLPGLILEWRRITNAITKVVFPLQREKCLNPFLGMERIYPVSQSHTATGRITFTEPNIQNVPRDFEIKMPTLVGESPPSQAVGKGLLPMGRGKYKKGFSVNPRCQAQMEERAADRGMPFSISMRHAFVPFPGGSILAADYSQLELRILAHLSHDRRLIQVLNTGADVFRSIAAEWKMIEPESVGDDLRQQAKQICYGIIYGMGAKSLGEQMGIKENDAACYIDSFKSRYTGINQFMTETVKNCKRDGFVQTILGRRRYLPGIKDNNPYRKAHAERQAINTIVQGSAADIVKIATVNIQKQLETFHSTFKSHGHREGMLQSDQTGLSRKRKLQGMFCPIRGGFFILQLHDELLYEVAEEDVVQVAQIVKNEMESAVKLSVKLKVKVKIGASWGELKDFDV
Effect on: enzyme activity
Action: inhibitor
Tested at: 77 µM
Baseline: untreated
Endpoint: remaining activity
Structure (SMILES) = COc1ccccc1N1CCN(CCCCN2C(=O)c3ccccc3C2=O)CC1; result = 96%
Structure (SMILES) = CCc1c(C(=O)NCCc2ccc(N3CCCCC3)cc2)[nH]c2ccc(Cl)cc12; result = 92.1%
Structure (SMILES) = Nc1nc(OCc2ccccc2)c2nc[nH]c2n1; result = 97.2%
Structure (SMILES) = COc1cc2ncnc(Nc3cccc(O)c3)c2cc1OC; result = 96%
Structure (SMILES) = C#C[C@]1(O)CC[C@H]2[C@@H]3CCc4cc(OC)ccc4[C@H]3CC[C@@]21C; result = 104% and 101%
Structure (SMILES) = O=c1cc(-c2ccccc2)oc2c(O)c(O)ccc12; result = 96.9%
Structure (SMILES) = C[C@]12CC[C@@H]3c4ccc(O)cc4CC[C@H]3[C@@H]1C[C@@H](O)[C@@H]2O; result = 100% and 94%
Structure (SMILES) = C[C@H](NC(=O)[C@@H](O)c1cc(F)cc(F)c1)C(=O)N[C@@H]1C(=O)N(C)c2ccccc2-c2ccccc21; result = 99.7%
Structure (SMILES) = Cc1c(NC(C)C)c(=O)n(-c2ccccc2)n1C; result = 94%
Structure (SMILES) = NS(=O)(=O)c1cc2c(cc1C(F)(F)F)NCNS2(=O)=O; result = 100%
Structure (SMILES) = COc1cc2c(CCNC(C)=O)c[nH]c2cc1Cl; result = 114%
Structure (SMILES) = CCCCCC(O)CCCC(=O)O (stereo not drawn); result = 101%
Structure (SMILES) = COc1c(C)c2c(c(O)c1C/C=C(\C)CCC(=O)O)C(=O)OC2; result = 93.1% and 91.4%

Block 3
Compound: CC(C)n1cnc(-c2ccc(F)cc2)c1-c1ncc(C(=O)Nc2ccc(N3CCN(C)CC3)cc2)[nH]1
Method: phase 2a trial
Host: idiopathic pulmonary fibrosis patients
Endpoint: adverse event incidence
measured = hydroxybutyrate dehydrogenase increased; dose = 30 mg once daily; notes = grade 2; result = 0%
measured = allergic conjunctivitis; dose = 60 mg once daily; notes = grade 3; result = 0%
measured = general and administration site disorders; dose = dose not given; notes = grade 4, all arms pooled; result = 0%
measured = allergic conjunctivitis; dose = 30 mg once daily; notes = grade 2; result = 0%
measured = drug eruption; dose = 30 mg once daily; notes = grade 5; result = 0%
measured = ventricular extrasystoles; dose = 60 mg once daily; notes = grade 3; result = 0%
measured = weight decreased; dose = 30 mg once daily; notes = grade 5; result = 0%
measured = appendicitis; dose = 60 mg once daily; notes = grade 5; result = 0%
measured = general and administration site disorders; dose = 30 mg once daily; notes = grade 2; result = 0%
measured = liver injury; dose = dose not given; notes = grade 2, all arms pooled; result = 0%
measured = synovitis; dose = dose not given; notes = grade 1, all arms pooled; result = 0%
measured = weight decreased; dose = 60 mg once daily; notes = grade 3; result = 0%
measured = immunoglobulins increased; dose = 30 mg once daily; notes = grade 4; result = 0%
measured = drug eruption; dose = 30 mg once daily; notes = grade 3; result = 0%

Block 4
Target: Calcium/calmodulin-dependent protein kinase type II subunit alpha (CAMK2A, Homo sapiens, UniProt Q9UQM7)
UniProt Q9UQM7, sequence (whole entry, looked up): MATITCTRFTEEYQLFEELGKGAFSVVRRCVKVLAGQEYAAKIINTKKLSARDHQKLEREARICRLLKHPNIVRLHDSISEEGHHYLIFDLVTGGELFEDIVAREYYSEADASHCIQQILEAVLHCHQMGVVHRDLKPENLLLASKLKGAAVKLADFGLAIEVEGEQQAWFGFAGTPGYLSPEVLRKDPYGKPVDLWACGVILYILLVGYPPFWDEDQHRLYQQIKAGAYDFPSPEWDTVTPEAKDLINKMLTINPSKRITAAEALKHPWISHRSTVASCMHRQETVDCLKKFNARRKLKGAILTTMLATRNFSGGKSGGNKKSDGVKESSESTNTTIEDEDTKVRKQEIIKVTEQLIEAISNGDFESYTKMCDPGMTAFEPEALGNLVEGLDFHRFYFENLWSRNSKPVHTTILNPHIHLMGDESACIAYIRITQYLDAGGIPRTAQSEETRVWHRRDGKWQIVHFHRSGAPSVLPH
Effect on: enzyme activity
Action: inhibitor
Tested at: 10 µM
Endpoint: inhibition
Structure (SMILES) = NC(=O)CCC(N)C(=O)O (racemic); result = 31%
Structure (SMILES) = CCC(C)(O)C(=O)O (stereo not drawn); result = 6%
Structure (SMILES) = CC(=O)NCCc1c[nH]c2ccc(O)cc12; result = 18%
Structure (SMILES) = OCC1=C[C@@H](O)[C@]2(O[C@@H]3O[C@H](CO)[C@@H](O)[C@H](O)[C@H]3O)C=CO[C@@H](O[C@@H]3O[C@H](CO)[C@@H](O)[C@H](O)[C@H]3O)[C@H]12; result = 8%
Structure (SMILES) = COc1cc(O)c(C(=O)/C=C/c2ccccc2)c(O)c1; result = 19%
Structure (SMILES) = O=C1CC(c2ccc(O)cc2)Oc2ccccc21 (stereo not drawn); result = -17%
Structure (SMILES) = COc1ccc(-c2cc(=O)c3c(OC)c(OC)c(OC)c(OC)c3o2)cc1O; result = 7%
Structure (SMILES) = CCCCCCCCCC=O; result = 33%
Structure (SMILES) = O=C1N=C(O)CN1/N=C/c1ccc(-c2ccc([N+](=O)[O-])cc2)o1; result = -8%
Structure (SMILES) = CC(=O)[C@@]1(O)CC[C@H]2[C@@H]3CCC4=CC(=O)CCC4=C3[C@@H](c3ccc(N(C)C)cc3)C[C@@]21C; result = -1%
Structure (SMILES) = CC1=C(/C=C/C(C)=C/C=C/C(C)=C/C(=O)O)C(C)(C)CCC1=O; result = 1%
Structure (SMILES) = O=C1NCN(c2ccccc2)C12CCN(CCCC(c1ccc(F)cc1)c1ccc(F)cc1)CC2; result = -1%
Structure (SMILES) = CCC(O)C(=O)O (stereo not drawn); result = 28%
Structure (SMILES) = CCOC(CN1CCN(CC(C)C(=O)c2ccccc2)CC1)c1ccccc1 (stereo not drawn); result = -1%

For quick reference, copied from above (block 3):
measured = allergic conjunctivitis; dose = 60 mg once daily; notes = grade 3; result = 0%
measured = general and administration site disorders; dose = dose not given; notes = grade 4, all arms pooled; result = 0%
measured = allergic conjunctivitis; dose = 30 mg once daily; notes = grade 2; result = 0%
measured = drug eruption; dose = 30 mg once daily; notes = grade 5; result = 0%
measured = ventricular extrasystoles; dose = 60 mg once daily; notes = grade 3; result = 0%
measured = weight decreased; dose = 30 mg once daily; notes = grade 5; result = 0%
measured = appendicitis; dose = 60 mg once daily; notes = grade 5; result = 0%
measured = general and administration site disorders; dose = 30 mg once daily; notes = grade 2; result = 0%
